Measurements gathered from unrelated publications.
Protocols differ between the studies behind these lines. Numbers after ± are the reported error.
CDK5 with p25: Cyclin-dependent kinase 5, with p25 (CDK5, Homo sapiens, UniProt Q00535)
Sequence of UniProt Q00535 (whole entry, looked up): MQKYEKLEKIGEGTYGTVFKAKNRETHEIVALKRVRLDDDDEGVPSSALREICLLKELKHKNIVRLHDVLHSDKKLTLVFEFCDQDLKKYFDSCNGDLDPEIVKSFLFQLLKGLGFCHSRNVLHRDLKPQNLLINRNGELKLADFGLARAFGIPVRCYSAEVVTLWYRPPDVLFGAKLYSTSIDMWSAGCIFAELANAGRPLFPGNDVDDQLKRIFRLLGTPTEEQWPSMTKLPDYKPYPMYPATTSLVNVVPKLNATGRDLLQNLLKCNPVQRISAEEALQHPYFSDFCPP
MPO: Myeloperoxidase (MPO, Homo sapiens, UniProt P05164)
Sequence of UniProt P05164 (whole entry, looked up): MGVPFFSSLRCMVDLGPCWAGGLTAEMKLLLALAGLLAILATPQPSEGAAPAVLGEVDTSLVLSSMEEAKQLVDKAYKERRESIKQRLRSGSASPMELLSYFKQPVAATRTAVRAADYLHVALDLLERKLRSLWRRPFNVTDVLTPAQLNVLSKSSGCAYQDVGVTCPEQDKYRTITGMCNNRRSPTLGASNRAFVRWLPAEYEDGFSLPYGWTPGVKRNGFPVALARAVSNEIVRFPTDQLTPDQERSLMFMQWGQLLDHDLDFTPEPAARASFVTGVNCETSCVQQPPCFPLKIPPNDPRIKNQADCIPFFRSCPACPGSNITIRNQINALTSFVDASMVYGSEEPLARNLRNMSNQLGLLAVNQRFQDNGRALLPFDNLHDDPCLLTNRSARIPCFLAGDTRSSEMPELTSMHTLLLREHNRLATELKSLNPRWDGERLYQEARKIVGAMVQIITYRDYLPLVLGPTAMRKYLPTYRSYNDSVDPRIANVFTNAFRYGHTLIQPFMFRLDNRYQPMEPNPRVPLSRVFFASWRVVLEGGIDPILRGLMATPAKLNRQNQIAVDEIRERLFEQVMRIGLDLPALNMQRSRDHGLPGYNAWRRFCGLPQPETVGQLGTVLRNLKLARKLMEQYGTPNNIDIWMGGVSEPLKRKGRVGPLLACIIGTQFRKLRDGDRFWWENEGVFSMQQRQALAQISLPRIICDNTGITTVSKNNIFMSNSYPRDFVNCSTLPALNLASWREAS
P2RX7: P2X purinoceptor 7 (P2RX7, Homo sapiens, UniProt Q99572)
Sequence of UniProt Q99572 (whole entry, unmodified, looked up): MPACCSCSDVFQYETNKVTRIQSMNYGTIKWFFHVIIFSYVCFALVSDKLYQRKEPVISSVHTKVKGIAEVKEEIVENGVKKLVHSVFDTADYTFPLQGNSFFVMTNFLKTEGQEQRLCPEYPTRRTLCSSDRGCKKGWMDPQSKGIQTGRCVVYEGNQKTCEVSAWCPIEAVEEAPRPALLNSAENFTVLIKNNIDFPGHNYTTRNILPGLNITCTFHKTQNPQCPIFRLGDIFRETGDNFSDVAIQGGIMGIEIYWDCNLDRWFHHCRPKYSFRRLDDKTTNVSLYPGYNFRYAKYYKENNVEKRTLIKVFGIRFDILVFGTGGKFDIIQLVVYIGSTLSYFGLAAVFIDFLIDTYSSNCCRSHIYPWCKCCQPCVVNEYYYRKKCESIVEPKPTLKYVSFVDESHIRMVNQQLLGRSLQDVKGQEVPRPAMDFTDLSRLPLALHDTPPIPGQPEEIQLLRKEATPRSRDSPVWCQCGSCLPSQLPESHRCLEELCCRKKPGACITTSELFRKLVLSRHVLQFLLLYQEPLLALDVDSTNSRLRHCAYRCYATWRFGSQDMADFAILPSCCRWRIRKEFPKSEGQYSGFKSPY
Sequence of UniProt P22607 (whole entry, looked up): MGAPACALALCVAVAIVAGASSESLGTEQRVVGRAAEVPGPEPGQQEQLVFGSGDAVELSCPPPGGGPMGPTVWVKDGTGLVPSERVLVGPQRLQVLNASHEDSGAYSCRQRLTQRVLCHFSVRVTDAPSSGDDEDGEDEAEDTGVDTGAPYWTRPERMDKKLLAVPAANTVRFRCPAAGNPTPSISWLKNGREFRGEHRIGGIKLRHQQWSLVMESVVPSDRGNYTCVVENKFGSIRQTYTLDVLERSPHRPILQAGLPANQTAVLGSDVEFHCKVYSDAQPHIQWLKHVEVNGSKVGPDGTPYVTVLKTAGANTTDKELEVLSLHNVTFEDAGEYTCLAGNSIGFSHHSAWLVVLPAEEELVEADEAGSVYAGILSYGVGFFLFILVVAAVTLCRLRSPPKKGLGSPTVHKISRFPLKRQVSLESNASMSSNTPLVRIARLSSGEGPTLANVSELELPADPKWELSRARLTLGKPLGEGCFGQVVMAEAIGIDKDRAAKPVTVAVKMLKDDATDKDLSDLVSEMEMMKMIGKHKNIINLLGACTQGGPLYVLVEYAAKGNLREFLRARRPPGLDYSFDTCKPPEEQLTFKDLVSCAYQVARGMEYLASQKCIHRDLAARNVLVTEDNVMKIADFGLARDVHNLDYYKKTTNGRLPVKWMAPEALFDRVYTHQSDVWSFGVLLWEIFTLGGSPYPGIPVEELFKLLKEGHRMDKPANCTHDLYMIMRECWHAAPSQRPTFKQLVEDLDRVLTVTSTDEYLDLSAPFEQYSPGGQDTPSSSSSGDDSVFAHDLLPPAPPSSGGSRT
Sequence of UniProt Q16620 (whole entry, looked up): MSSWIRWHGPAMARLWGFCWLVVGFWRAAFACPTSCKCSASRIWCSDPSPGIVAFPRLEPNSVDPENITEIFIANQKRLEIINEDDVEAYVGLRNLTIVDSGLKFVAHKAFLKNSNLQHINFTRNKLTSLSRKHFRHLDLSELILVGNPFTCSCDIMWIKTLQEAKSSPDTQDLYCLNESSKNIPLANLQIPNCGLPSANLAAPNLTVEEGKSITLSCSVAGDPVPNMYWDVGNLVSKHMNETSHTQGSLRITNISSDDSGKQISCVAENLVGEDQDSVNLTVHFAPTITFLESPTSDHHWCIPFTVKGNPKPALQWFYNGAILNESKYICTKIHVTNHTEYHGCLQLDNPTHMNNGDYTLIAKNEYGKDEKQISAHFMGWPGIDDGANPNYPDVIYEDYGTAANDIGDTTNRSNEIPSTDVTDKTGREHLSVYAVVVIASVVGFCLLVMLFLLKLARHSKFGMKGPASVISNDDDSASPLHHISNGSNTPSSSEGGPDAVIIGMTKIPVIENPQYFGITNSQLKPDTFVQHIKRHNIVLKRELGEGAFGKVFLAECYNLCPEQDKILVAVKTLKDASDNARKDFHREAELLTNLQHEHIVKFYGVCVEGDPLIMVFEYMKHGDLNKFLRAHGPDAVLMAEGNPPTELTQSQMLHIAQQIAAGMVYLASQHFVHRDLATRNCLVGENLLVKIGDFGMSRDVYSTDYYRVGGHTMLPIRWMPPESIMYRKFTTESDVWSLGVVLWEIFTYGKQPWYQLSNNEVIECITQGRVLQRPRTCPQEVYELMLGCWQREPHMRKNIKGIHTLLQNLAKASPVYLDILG
Sequence of UniProt Q9H422 (whole entry, looked up): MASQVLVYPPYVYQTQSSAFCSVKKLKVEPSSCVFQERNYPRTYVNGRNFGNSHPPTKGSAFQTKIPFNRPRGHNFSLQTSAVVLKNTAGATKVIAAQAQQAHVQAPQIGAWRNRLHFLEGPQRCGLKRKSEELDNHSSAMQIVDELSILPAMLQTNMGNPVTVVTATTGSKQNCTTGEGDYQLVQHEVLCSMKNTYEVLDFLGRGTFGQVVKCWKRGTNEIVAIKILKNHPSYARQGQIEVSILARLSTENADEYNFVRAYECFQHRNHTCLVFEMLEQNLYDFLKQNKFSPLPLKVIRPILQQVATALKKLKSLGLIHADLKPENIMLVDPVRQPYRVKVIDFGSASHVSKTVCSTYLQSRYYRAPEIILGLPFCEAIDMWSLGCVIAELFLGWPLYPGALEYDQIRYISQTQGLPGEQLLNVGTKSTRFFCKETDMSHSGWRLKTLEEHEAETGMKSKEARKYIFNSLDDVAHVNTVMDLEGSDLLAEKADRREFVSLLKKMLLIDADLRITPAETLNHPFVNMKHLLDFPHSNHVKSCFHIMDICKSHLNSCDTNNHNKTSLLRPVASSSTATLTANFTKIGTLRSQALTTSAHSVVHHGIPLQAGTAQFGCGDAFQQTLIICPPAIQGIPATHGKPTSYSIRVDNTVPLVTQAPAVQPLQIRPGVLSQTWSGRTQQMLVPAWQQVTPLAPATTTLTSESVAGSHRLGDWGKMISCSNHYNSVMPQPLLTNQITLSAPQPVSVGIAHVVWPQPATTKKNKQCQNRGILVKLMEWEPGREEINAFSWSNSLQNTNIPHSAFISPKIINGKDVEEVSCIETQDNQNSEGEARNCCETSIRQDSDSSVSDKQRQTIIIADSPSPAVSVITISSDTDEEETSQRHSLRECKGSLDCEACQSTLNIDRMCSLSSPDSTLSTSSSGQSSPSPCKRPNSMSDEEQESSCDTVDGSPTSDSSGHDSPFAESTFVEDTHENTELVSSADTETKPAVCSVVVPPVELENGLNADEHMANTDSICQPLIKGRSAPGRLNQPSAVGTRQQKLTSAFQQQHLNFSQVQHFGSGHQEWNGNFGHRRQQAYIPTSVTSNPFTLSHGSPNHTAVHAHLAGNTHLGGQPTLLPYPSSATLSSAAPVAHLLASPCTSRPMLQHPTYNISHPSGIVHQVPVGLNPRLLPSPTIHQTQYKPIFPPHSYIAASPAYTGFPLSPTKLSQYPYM
Sequence of UniProt P45983 (whole entry, looked up): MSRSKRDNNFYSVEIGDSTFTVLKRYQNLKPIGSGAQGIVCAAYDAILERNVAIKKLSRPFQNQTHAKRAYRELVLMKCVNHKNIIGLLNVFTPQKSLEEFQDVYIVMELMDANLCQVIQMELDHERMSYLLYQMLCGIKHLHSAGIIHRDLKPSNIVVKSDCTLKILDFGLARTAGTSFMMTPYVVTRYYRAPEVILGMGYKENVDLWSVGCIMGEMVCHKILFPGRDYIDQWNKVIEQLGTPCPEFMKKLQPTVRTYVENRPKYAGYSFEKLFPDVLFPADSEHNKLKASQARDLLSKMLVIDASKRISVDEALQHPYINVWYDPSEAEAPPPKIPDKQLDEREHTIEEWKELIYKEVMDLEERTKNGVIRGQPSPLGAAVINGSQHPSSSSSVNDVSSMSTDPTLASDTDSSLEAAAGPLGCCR

SMILES = COc1cc(N2CCN(C)CC2)ccc1Nc1nc(N)n(C(=O)NCc2c(Cl)cccc2Cl)n1; target = Ribosomal protein S6 kinase alpha-4, C-terminal kinase domain (RPS6KA4, Homo sapiens, UniProt O75676); assay = enzyme activity; conditions = 10 µM; how to read = baseline: control; remaining activity = 2.1%
SMILES = CNc1ncc2c(/C=C/C(=O)N3CCC(OC)CC3)nn(Cc3cccc(C(F)(F)F)c3)c2n1; target = CDK5 with p25; assay = inhibitor; conditions = 1 µM; how to read = baseline: control; remaining activity = 116%
SMILES = COc1cc(-c2cncc3c2CN(C)Cc2cc(N4CCNCC4)ccc2-3)cc(OC)c1OC; target = SNRK (Homo sapiens, UniProt Q9NRH2); assay = kinase activity; conditions = 1 µM, human enzyme, together with: ATP 10 µM; how to read = baseline: DMSO control; remaining activity = 118%
SMILES = COc1cc(N2CCN(C)CC2)ccc1Nc1nc(N)n(C(=S)NCc2c(Cl)cccc2Cl)n1; target = TESK1 (Homo sapiens, UniProt Q15569); assay = enzyme activity; conditions = 10 µM; how to read = baseline: control; remaining activity = 11%
SMILES = NC/C(=C\F)COc1cccc(Cn2c(=S)[nH]c(=O)c3[nH]cnc32)c1; target = MPO; assay = LDL lipid peroxidation, inhibitor, cholesteryl ester hydroperoxide; conditions = 0.0185 µM; remaining activity = 45.9%
SMILES = CC#CC(=O)N1CCC[C@H]1c1nc(-c2ccc(C(=O)Nc3ccccn3)cc2)c2c(N)nccn12; target = MAP3K3 (Homo sapiens, UniProt Q99759); assay = kinase activity, inhibitor, HotSpot radiometric; conditions = 100 nM, together with: ATP 10 µM; remaining activity = 91.5 ± 5.9%
SMILES = C=CC[C@@H]1c2ccc(OC)c(OC)c2CN2CCc3cc4c(cc3[C@H]12)OCO4; target = P2RX7; assay = ATP-evoked current, inhibitor, whole-cell patch clamp; system = HEK293 transfected; conditions = 0.01 µM; remaining activity = 99.9%
SMILES = C=CC(=O)N1CCC([C@@H]2CCNc3c(C(N)=O)c(-c4ccc(Oc5ccccc5)cc4)nn32)CC1; target = FGFR3 (Homo sapiens, UniProt P22607); assay = kinase activity, inhibitor, HotSpot radiometric; conditions = 100 nM, together with: ATP 10 µM; remaining activity = 101.2 ± 0.2%
SMILES = C1=C/COCc2cc(ccc2OCCN2CCCC2)Nc2nccc(n2)-c2cccc(c2)COC/1; target = EGFR (Homo sapiens, UniProt P00533, L858R/T790M); conditions = concentration not given; how to read = baseline: untreated control; remaining activity = 15%
SMILES = COc1ccc(F)cc1C(=O)NCc1ccc(-c2nn([C@@H](C)C(F)(F)F)c(N)c2C(N)=O)cc1; target = CSNK1E (Homo sapiens, UniProt P49674); assay = kinase activity, inhibitor, HotSpot radiometric; conditions = 1000 nM, together with: ATP at Km; remaining activity = 68.4 ± 0.3%
SMILES = CC(C)OCCn1c(=S)[nH]c(=O)c2[nH]ccc21; target = MPO; assay = chlorination activity; conditions = 0.156 µM, 0.1 h, together with: iodide, TMB; remaining activity = 96.3%
SMILES = C=CC(=O)N1CCC[C@@H](n2nc(-c3ccc(Oc4ccccc4)cc3)c3c(N)ncnc32)C1; target = NTRK2 (Homo sapiens, UniProt Q16620); conditions = 1 µM; remaining activity = 177%
SMILES = O=C1NC(=O)/C(=C/c2ccc(-c3ccc(F)cc3O)o2)S1; target = HIPK3 (Homo sapiens, UniProt Q9H422); assay = enzyme activity; conditions = 10 µM; remaining activity = 23%
SMILES = Cc1cc(Nc2cc(N3CCN(C)CC3)nc(Sc3ccc(NC(=O)C4CC4)cc3)n2)[nH]n1; target = CDK5 with p25; assay = kinase activity, KinaseProfiler; conditions = 0.03 µM, species human; how to read = baseline: control; remaining activity = 104%
SMILES = CC(C)(C)c1nc(-c2cccc(NS(=O)(=O)c3c(F)cccc3F)c2F)c(-c2ccnc(N)n2)s1; target = CDK5 with p25; assay = kinase activity, radiometric 33PanQinase; conditions = 1 µM; how to read = baseline: DMSO; remaining activity = 98%
SMILES = COc1cc(Nc2ncc3c(n2)-c2ccc(Cl)cc2C(c2c(F)cccc2OC)=NC3)ccc1C(=O)O; target = CAMK4; assay = kinase activity; conditions = 1 µM; remaining activity = 88%
SMILES = Oc1cc(O)c2c(c1)OC(c1cc(O)c(O)c(O)c1)C(O)C2 (centres unmarked); target = Procathepsin L (CTSL, Homo sapiens, UniProt P07711); assay = enzyme activity, inhibitor; conditions = 100 µM, together with: Z-FR-AFC; remaining activity = 95.6%
SMILES = O=C(O)c1ccc(Nc2ncc3c(n2)-c2ccc(Cl)cc2C(c2c(F)cccc2F)=NC3)cc1; target = Ron(h); assay = kinase activity; conditions = 1 µM; remaining activity = 94%
SMILES = Cc1cc(NC(=O)c2cccc(NC(=O)/C=C/CN(C)C)c2)ccc1Nc1nccc(-c2cccnc2)n1; target = MAPK8 (Homo sapiens, UniProt P45983); assay = enzyme activity, inhibitor; conditions = 0.02032 µM, 18 h, unit not given, together with: GSH 10 mM pre-incubation; how to read = baseline: vehicle; remaining activity = 0.974
SMILES = COc1cc(F)ccc1-c1ncnc(Nc2cccc(C[S@](C)(=N)=O)c2)n1; target = EPHA2 (Homo sapiens, UniProt P29317); assay = kinase activity; conditions = 10 µM, together with: 10 µM ATP; remaining activity = 41%
SMILES = COc1ccc2cc3[n+](cc2c1OC)CCc1cc2c(cc1-3)OCO2; target = P2RX7; assay = ATP-evoked current, inhibitor, whole-cell patch clamp; system = HEK293 transfected; conditions = 10 µM; remaining activity = 60.2%
SMILES = C=CC(=O)N1CCC[C@@H](n2nc(-c3ccc(Oc4ccccc4)cc3)c3c(N)ncnc32)C1; target = CDK5 with p25; assay = kinase activity, inhibitor, HotSpot radiometric; conditions = 100 nM, together with: ATP 10 µM; remaining activity = 73.2%
SMILES = O=C(NC1CCC1)c1ccc2nc(-c3cccc(NS(=O)(=O)NCCN4CCCCC4)c3)cn2c1; target = WEE2 (Homo sapiens, UniProt P0C1S8); assay = enzyme activity; conditions = 10 µM; remaining activity = 100%
